Measured values collected from several papers.
Each numbered part is a random draw from the data of one study; scales do not carry over between parts.

Series 1
Target: Cyclic AMP-dependent transcription factor ATF-1 (ATF1, Homo sapiens, UniProt P18846, residues 1-271, full length assumed)
Method: protein-binding microarray
Form: double-stranded DNA, one strand shown
Sample: in vitro
Tested at: not given
Setting: k-mer, scored over probes, only values ≥0.25
Reading: higher = stronger binding
Endpoint: E-score
Residues (chain): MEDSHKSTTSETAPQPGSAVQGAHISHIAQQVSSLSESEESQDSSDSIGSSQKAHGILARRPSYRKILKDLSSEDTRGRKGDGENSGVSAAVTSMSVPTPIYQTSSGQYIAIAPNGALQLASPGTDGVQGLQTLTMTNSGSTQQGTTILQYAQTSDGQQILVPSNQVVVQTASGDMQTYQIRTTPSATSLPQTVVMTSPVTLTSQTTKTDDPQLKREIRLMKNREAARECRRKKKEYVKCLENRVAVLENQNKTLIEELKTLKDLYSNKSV
CGTAAGC: 0.251
ACGACAC: 0.251
ACGTATC: 0.343
CGTCACC: 0.483
ATGATGA: 0.263
GTCACAC: 0.362

Series 2
Target: Histone acetyltransferase KAT6A, both winged helices, GST fusion (KAT6A, Homo sapiens, UniProt Q92794, residues 1-181)
Method: protein binding microarray
Form: double-stranded DNA, one strand shown
Sample: in vitro
Tested at: not given
Setting: 8-mer, flanks averaged, mean of 2 arrays, mostly near background
Reference: not given
Reading: higher = stronger binding
Endpoint: E-score
Residues (chain): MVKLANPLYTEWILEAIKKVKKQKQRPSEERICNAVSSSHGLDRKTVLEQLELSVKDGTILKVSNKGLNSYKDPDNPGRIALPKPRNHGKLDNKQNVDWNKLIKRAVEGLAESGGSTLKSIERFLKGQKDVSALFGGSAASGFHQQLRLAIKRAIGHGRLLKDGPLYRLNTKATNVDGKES
AACTGTTC: -0.00375
TGGATACA: -0.0362
AGTCCTAT: -0.117
ATCCGCAT: 0.182
CAACTAAA: -0.109

Series 3
Target: Prothrombin, mature alpha-thrombin (F2, Homo sapiens, UniProt P00734)
Method: aptamer microarray, sandwich
Form: DNA with 2'F-ANA
Sample: in vitro
Tested at: 200 nM
Setting: whole 15-mer aptamer, many near background
Added: Cy3 exosite-II aptamer, 400 nM
Reading: higher = stronger binding
Endpoint: mean fluorescence intensity
Oligonucleotide: GGTTGGTGTGGTTGG
2'F-ANA at 1 2 3 6 8 9 14: 68 a.u.
2'F-ANA at 1 2 4 9 11 13 14 15: 48.5 a.u.
2'F-ANA at 2 5 6 7 9 10 11 13 14 15: 48 a.u.
2'F-ANA at 2 6 8 10 12 15: 142 a.u.
2'F-ANA at 1 4 5 6 11: 127 a.u.

Single results of other studies
PhoQ, residues 284 288 289 292 302 303 SLKLQV
fold induction (PhoP, residues 12 14 15 18 19 TTLRV (Escherichia coli, UniProt P23836); Sort-seq, measured: YFP reporter; E. coli; PhoQ-PhoP variant library, added: 10 µM Mg2+; reference: high Mg2+ state, higher = stronger signaling): 13

Repeated from above (series 1):
CGTAAGC: 0.251
ATGATGA: 0.263
